Measured values of several laboratories.
± marks the error that the study gave.

SMILES | test | test system | conditions | tissue uptake
CCCC[C@H](NC(=O)CNC(=O)CNC(=O)CN1CCN(CC(=O)O)CCN(CC(=O)O)CCN(CC(=O)O)CC1)C(=O)N[C@H]1CC(=O)NCCCC[C@@H](C(N)=O)NC(=O)[C@H](Cc2c[nH]c3ccccc23)NC(=O)[C@H](CCCNC(=N)N)NC(=O)[C@@H](Cc2ccccc2)NC(=O)[C@H](Cc2c[nH]cn2)NC1=O [lead-203 labelled] | – | C57 mouse, muscle | intravenous, 0.056 MBq, 24 h | 0.06 ± 0.05 %ID/g
O=C(O)C1CN(Cc2ccc(-c3noc(-c4ccc(OCC[18F])c(C(F)(F)F)c4)n3)cc2)C1 | – | male Sprague-Dawley rat, pancreas | intravenous, 120 min | 0.265 ± 0.128 %ID/g
OCc1cn(Cc2ccc(-c3noc(-c4ccc(OCC[18F])c(C(F)(F)F)c4)n3)cc2)nn1 | – | female Lewis rat, thymus | intravenous, 120 min | 0.78 ± 0.05 %ID/g
CCCC[C@H](NC(=O)CNC(=O)CNC(=O)CN1CCN(CC(=O)O)CCN(CC(=O)O)CC1)C(=O)N[C@H]1CC(=O)NCCCC[C@@H](C(N)=O)NC(=O)[C@H](Cc2c[nH]c3ccccc23)NC(=O)[C@H](CCCNC(=N)N)NC(=O)[C@@H](Cc2ccccc2)NC(=O)[C@H](Cc2c[nH]cn2)NC1=O [copper-64 labelled] | – | female C57 mouse, B16/F1 melanoma, tumor | intravenous, 0.037 MBq, 24 h | 4.25 ± 0.32 %ID/g
O=C([O-])c1cccc(CN(CCN(Cc2cn(Cc3ccccc3)nn2)Cc2cccc(C(=O)[O-])n2)Cc2cn(Cc3ccccc3)nn2)n1.[64Cu+2] | – | athymic nude mice, femur | intravenous, 0.25 h, with: 64Cu | 1.27 %ID/g
CC(C)[C@H](NC(=O)[C@@H]1CCCN1C(=O)[C@H](CCCNC(=N)N)NC(=O)[C@H](CS)NC(=O)[C@H](Cc1c[nH]c2ccccc12)NC(=O)[C@H](CCCNC(=N)N)NC(=O)[C@@H](Cc1ccccc1)NC(=O)[C@H](Cc1c[nH]cn1)NC(=O)[C@H](CCC(=O)O)NC(=O)[C@H](CS)NC(=O)[C@H](CS)NC(=O)CNC(=O)[C@@H]1CC(=O)N[C@@H](CCCNC(=N)N)C(=O)NCC(=O)N[C@@H](CC(=O)O)C(=O)N[C@H](Cc2ccc(O)cc2)C(=O)N1)C(N)=O [technetium-99m labelled] | – | C57 mouse, female, B16/F1 melanoma, bone | intravenous, 0.037 MBq, 0.5 h | 2.02 ± 0.51 %ID/g
O=C([O-])CN1CCN(CC(=O)[O-])CCN(CC(=O)NCCc2ccc3c(c2)C2C=CCC2C(c2cc4c(cc2Br)OCO4)N3)CCN(CC(=O)[O-])CC1.[111In+3] (stereo not shown) | – | mouse, Hec50 endometrial tumour, kidneys | 4 h post injection | 1.74 ± 0.46 %ID/g
O=C([O-])CN1CCN(CC(=O)[O-])CCN(CC(=O)[O-])CCN(CC(=O)[O-])CC1.[64Cu+2] | – | healthy athymic nude mice, blood | intravenous, 4 h | 0.22 %ID/g
CC(C)[C@H](NC(=O)[C@@H]1CCCN1C(=O)[C@H](CCCNC(=N)N)NC(=O)[C@H](CS)NC(=O)[C@H](Cc1c[nH]c2ccccc12)NC(=O)[C@H](CCCNC(=N)N)NC(=O)[C@@H](Cc1ccccc1)NC(=O)[C@H](Cc1c[nH]cn1)NC(=O)[C@H](CCC(=O)O)NC(=O)[C@H](CS)NC(=O)[C@H](CS)NC(=O)[C@@H]1CC(=O)N[C@@H](CCCNC(=N)N)C(=O)NCC(=O)N[C@@H](CC(=O)O)C(=O)N[C@H](Cc2ccc(O)cc2)C(=O)N1)C(N)=O [technetium-99m labelled] | – | C57 mouse, female, B16/F1 melanoma, skin | intravenous, 0.037 MBq, 0.5 h | 7.49 ± 1.75 %ID/g
CCCC[C@H](NC(=O)CNC(=O)CNC(=O)CN1CCN(CC(=O)O)CCN(CC(=O)O)CCN(CC(=O)O)CC1)C(=O)N[C@H]1CC(=O)NCCCC[C@@H](C(N)=O)NC(=O)[C@H](Cc2c[nH]c3ccccc23)NC(=O)[C@H](CCCNC(=N)N)NC(=O)[C@@H](Cc2ccccc2)NC(=O)[C@H](Cc2c[nH]cn2)NC1=O [copper-64 labelled] | – | female C57 mouse, B16/F1 melanoma, kidneys | intravenous, 0.037 MBq, 4 h | 7.45 ± 0.96 %ID/g
C[C@H](CN(C)Cc1ccccc1)NC(=O)c1ccc(-c2noc(C(F)(F)[18F])n2)cc1 | PET imaging | female Sprague-Dawley rats, cerebellum | intravenous, 10 min | 1.91 ± 0.89 SUV
NC12CNCCNCC(NCc3ccc(CNC(=O)CCCC(=O)NCc4ccc(-c5nncnn5)cc4)cc3)(CNCCNC1)CNCCNC2.[64Cu+2] | – | athymic nude mice SW1222 xenograft, kidney | 4 h post injection, 24 h accumulation interval, with: huA33-TCO pretargeting | 2.77 ± 0.57 %ID/g
CN(C)c1ccc(-c2nc3ccc(OCCCCCN4CCN5CCN(CC4)CC(=O)[O][Al]([18F])[O]C(=O)C5)cc3s2)cc1 | – | ICR mouse, lung | intravenous, 2 min | 15.6 ± 3.18 %ID/g

For quick reference, copied from above:
SMILES | test | test system | conditions | tissue uptake
O=C([O-])CN1CCN(CC(=O)[O-])CCN(CC(=O)[O-])CCN(CC(=O)[O-])CC1.[64Cu+2] | – | healthy athymic nude mice, blood | intravenous, 4 h | 0.22 %ID/g
